Published values gathered from unrelated publications.
Every numbered part comes from another study and shows a few of its results, in no order. Changes are numbered by the printed parent chain.

Block 1 — target: CCND1, cyclin fold, Cln2 fusion (human); technique: yeast growth competition, sequencing; matrix: yeast; setting: weak parent motif; relative to: not given; reading: higher = stronger binding
Starting sequence: BRCA2 docking peptide (human); PSIKRNLLNEFDR; partner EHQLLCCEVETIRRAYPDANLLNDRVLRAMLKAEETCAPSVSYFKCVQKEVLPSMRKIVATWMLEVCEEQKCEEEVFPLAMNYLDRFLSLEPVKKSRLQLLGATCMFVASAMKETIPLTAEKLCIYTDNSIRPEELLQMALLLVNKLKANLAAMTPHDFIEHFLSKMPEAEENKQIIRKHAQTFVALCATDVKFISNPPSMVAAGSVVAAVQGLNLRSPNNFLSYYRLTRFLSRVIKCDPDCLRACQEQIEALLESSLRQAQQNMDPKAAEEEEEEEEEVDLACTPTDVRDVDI
Substitution	normalised enrichment score
L8I	0.576
I3G	0.549
L7P	-0.392
F11E	-0.3
K4E	0.315
D12I	-0.621
N9C	0.142
E10R	0.107
R13V	0.281
K4C	2.65
R13I	1.99
L7V	-0.106
L8M	1.69
P1R	0.735
E10F	1.06
K4T	-0.0384

Block 2 — technique: competition protein-binding microarray; form: double-stranded DNA, one strand shown; matrix: in vitro; concentration: 2 µM; with: Cbf1 competitor, 0.05 µM; reading: higher = stronger binding; shared flanks, not repeated: … GTCTTGATTCGCTTGACGCTGCTG
Target: Phosphate system positive regulatory protein PHO4, full length, GST-tagged (PHO4, Saccharomyces cerevisiae, UniProt P07270, residues 1-312)
Setting: whole 60-bp probe, lowest competitor level
Residues (chain): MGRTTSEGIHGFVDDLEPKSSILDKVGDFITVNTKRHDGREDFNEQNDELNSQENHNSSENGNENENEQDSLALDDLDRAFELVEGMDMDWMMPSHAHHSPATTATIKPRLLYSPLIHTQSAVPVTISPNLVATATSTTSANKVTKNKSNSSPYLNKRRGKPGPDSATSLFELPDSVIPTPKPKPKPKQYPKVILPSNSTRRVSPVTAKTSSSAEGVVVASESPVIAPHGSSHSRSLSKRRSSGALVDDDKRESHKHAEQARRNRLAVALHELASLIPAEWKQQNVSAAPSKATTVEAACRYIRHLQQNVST
Oligonucleotide	fluorescence intensity [a.u.]
CTTCTGTAAATTTGTCACAATACTTGACGCGCCCCG	3960
AATTTTTACGCTCCACACGTCATCGACATCTAAATA	5830
CCTTGTCAGAGTCCGCACGGCCTTTTACTCTGGTGC	4930
ATGTAGTAACTTTTTGATGTGACGGTCGTTAATACC	4170
TCCTTGTCAACGCCGTGCGTGACGGTATGATTCACA	7550
CGGGGTTAAGTTTTTCACGTGAACTGCTTGCAGCAG	7570
CGTCCTAGTGATTGCCAGGTGGGTGCCATGAGGAAG	6880
CCTGCACCGACTCCGTGCGTGCGGAATTGGTAATGC	9350
CTAAGAAGATTGCTCAACGTGAAATACTTGCTGCTT	6350
CTTCTGTAAATTTGGTGCGTGGGTGGACGCGCCCCG	9100
AATATTTCGTCGAGTCACGTAAGTGCAAGGTAATAA	4650
CTTTGCTCCATACAGCATGTGGAGCAGGCGTACTTG	9300
CCCCATCGGACTCGGCACGATACTGGCGTTGAACGC	6500
GAATGTATGGATCGTCAGGTGGGCATTTGTTAACTT	4730
CATACCCAACCTTGGACTGTGGGTGAAGATATTTGT	3600
AAATTACTAAGTTGAATTGTGGGTGACGCCGTATGA	4060

Block 3 — technique: RNAcompete; form: RNA; matrix: in vitro; concentration: 20 nM; setting: 7-mer, probes averaged, single round; relative to: mean of 7-mers; reading: higher = stronger binding
Target: PABPC1L2, full length, GST fusion (mouse, UniProt A0ABA7IW68)
Residues (chain): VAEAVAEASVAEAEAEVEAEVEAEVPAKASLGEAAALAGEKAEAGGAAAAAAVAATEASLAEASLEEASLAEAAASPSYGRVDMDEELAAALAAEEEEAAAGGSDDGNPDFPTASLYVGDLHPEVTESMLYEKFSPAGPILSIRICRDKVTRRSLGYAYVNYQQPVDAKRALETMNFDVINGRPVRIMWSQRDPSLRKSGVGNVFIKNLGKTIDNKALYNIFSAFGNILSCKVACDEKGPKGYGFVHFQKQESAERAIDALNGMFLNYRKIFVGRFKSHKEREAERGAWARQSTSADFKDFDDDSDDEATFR
Oligonucleotide	7-mer Z-score
GCGGAAG	-0.0409
UGCCGGC	-0.233
UCCGAGC	-0.106
AUCUGAG	-0.128
UAUGAAG	0.00798
GGCUCAA	0.247
AGUCCAC	-0.351
CCGCGGU	-0.302
CCACACU	-0.296
AGCUAGA	-0.0554
UGCCUCA	-0.173
AUUCGGU	-0.164
UUUCAAA	0.151
AACAUUA	0.668
GUGCGUG	0.166
AAAAGAU	7.73
GAGGAGG	0.189
CGCCCAA	-0.275
AAUCUUG	-0.11
ACAAUGC	0.0932
UAGGCAG	0.151
CGUAAUU	-0.278
AGAUACG	-0.224
UUUAAGG	0.336
ACUGGAC	0.00979

Block 4 — technique: protein binding microarray; form: double-stranded DNA, one strand shown; matrix: in vitro; concentration: not given; relative to: not given; reading: higher = stronger binding
Target: Histone acetyltransferase KAT6A, both winged helices, GST fusion (KAT6A, Homo sapiens, UniProt Q92794, residues 1-181)
Setting: 8-mer, flanks averaged, mean of 2 arrays, mostly near background
Target sequence (chain): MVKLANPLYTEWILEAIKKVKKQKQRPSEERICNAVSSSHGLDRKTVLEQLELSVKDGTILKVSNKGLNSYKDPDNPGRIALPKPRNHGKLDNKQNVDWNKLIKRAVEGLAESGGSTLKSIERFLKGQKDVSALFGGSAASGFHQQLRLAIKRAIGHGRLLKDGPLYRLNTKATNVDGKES
Oligonucleotide	E-score
AGATCCGG	0.025
GTCAGGCA	-0.144
ACACTTCA	-0.151
CGCAGGTC	0.0548
AGAGGACG	-0.0492
ATAGCCAC	-0.0858
AGCGCATA	0.188
GAGACATC	-0.121
CGGGCTGC	0.12
TCCCTCAA	-0.0649
ATGGCGTC	0.144
CGAAAGTA	-0.0751
CGGAGAAC	0.169
ACCACCCC	-0.143
ATGGTCGG	0.0617
CTGGTATA	-0.128
AAATCCCG	0.141
CTAGTTCC	-0.014
TAGCAGGA	-0.208
GGCGGGAC	0.261
GCCTTTCA	0.0758
CGAAGACG	0.113
CGTCCGAG	0.183
GAGGTAAA	-0.194
AGGGTACT	-0.177

Block 5 — technique: RNA Bind-n-Seq; form: RNA; matrix: in vitro; concentration: not given; relative to: input RNA pool; reading: higher = stronger binding
Target: RING finger protein unkempt homolog, zinc fingers 1-6, GST-SBP tag (UNK, Homo sapiens, UniProt Q9C0B0, residues 30-357)
Setting: RNA with constant flanks, human and mouse sites, ends assumed
Shared flanks, not repeated: GGGAGUUCUACAGUCCGACGAUC … CAACAGAGGAUUGAGCAUCA
Residues (chain): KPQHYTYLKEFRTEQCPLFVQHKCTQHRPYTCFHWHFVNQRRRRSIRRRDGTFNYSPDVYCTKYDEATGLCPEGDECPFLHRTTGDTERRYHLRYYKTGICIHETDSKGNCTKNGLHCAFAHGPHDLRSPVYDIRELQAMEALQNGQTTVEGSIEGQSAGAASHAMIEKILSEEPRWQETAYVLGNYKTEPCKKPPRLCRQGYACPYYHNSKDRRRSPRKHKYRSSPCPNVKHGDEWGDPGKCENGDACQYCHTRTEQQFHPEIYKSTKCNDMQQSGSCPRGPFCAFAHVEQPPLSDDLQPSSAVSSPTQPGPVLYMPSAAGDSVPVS
Oligonucleotide	bound/input enrichment [ratio]
AGUAAGCGGGACUUUAUGCUGAUCACAAACAGAUCCCUGAAAGAGGAAGAUGGAGAAGAAAUAGUUACCUAUGACCAUCUGUGUAAGAACUGUCAUCAUGUAGUAGCCAGACACGAGUAU	0.962
UCAUGGUGUGAAAUAUAUCUACCCAAAGAGGUAACAUCCUAUAAAUAGUAGUAAUUAAUUUAGCUGCAACCUUUUUAGGUAUUAAAUUACAUGACAAACAGUUAAAAUGAAUUUAAGAAU	10.4
AAUCAUGGUGGCAUCUGUAAUUUUUUUCUGAUUAGCACCUAAAGAUCGGUUUAAAGUGCUUGGACUGCUUAUCCUAAAAUCGUGUCUAGUGCGCUCGAGGCAUCGGUCAUACAAAUGGGG	0.301
CCUUAUGAACUUGGUCGGCUCUUCCAGCUACAAACUCUAGGUUUGAAAGGCAAUCCUUUAUCACAGGAUAUUCUCAACUUAUACCAGGACCCAGAUGGAACCCGAAAGCUACUGAACUUC	0.126
GAAAUAGCAAGUCUUGAUUCAGAGAAUAUAGAUGAAAUUUUAAAUAAUGCUGAUGUUGCUUUAGUAAAUUUUUAUGCUGACUGGUGUCGUUUCAGCCAGAUGUUGCAUCCAAUUUUUGAG	16.7
ACAAAGCAGCUGACAGAAAUGCUUCCCAGCAUCCUCAACCAGCUUGGUGCAGACAGCCUGACUAGUUUAAGGAGACUGGCUGAAGCUCUGCCCAAACAAUCUGUGGAUGGAAAAGCACCC	0.071
CCACCUCCUAUCAGUCCUACCCAGUUGAGUGAUGUGUCCUCCCCACGAUCAAUAACAUCUACACCACUUUCAGGAAAGGAGUCAGUAUUUUUUGCUGAAGCGCCCUUUAAGGCUGAGAUC	0.515
CAGAAGAAAGAUACAGGCCAUAUCUAUGCAAUGAAGAUAUUGAGAAAGUCUGAUAUGCUUGAAAAAGAGCAGGUGGCCCAUAUCCGAGCAGAAAGAGAUAUUUUGGUAGAAGCAGAUGGU	0.219
AGCACUGCCAGUCCCAAGGAGAAUUACACUCAAAAUACCAUCCAAGUGGCCAUUCAGAGUUUACGUUUCUUCAACAGCUUUGCAGCUCUUCAUCUGCCUGCUUUUCAGUCUAUUGUAGGG	0.0795
UCUACAUAUUUUGCCUGGUGCCCAGAUGGUGAGCAUAUCUUAACAGCCACAUGUGCUCCUAGGUUACGUGUUAAUAAUGGGUAUAAGAUCUGGCAUUAUACUGGCUCUCUUUUGCAUAAG	0.189
AUGGCUUCAGAAGAGCUACAGAAAGAUCUAGAAGAGGUAAAGGUGUUGCUGGAAAAGGCUACUAGGAAAAGAGUACGUGAUGCCCUUACAGCUGAAAAAUCCAAGAUUGAGACAGAAAUC	0.611

Block 6 — technique: DHFR PCA, deep sequencing; matrix: yeast; with: (+)-ABA 710 µM; relative to: wild-type fitted maximum; reading: higher = stronger binding
Target: ABI1, truncated, D143A, DHFR fusion (Arabidopsis thaliana)
Setting: methotrexate growth selection, single substitutions
Starting sequence: PYL1, truncated, DHFR fusion (Arabidopsis thaliana); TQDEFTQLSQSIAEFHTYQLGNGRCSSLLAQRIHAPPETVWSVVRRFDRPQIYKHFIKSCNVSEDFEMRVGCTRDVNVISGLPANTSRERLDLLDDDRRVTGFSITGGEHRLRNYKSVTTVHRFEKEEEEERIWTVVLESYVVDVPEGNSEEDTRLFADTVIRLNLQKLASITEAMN
Substitution	relative binding score
I172M	101%
E174L	87.7%
E109S	109%
Y115V	-9.3%
E128Y	97.8%
N61A	97.5%
V136G	48%
R24Y	91.3%
E127K	111%
V70S	91.3%
D159F	19%
S140D	-5.33%
T106G	66.4%
K168I	87.8%
V43W	71.4%
P50S	27.3%
S9R	105%
L28Q	97.7%
R46M	105%
S150G	92.7%

Some of these lines once more (block 3):
Oligonucleotide	7-mer Z-score
UUUAAGG	0.336
AGUCCAC	-0.351
ACAAUGC	0.0932
UUUCAAA	0.151
UCCGAGC	-0.106
CCGCGGU	-0.302
AAUCUUG	-0.11
AUUCGGU	-0.164
CGCCCAA	-0.275
UAUGAAG	0.00798
ACUGGAC	0.00979
